# Results collected from several papers.
# Several values in a cell are separate wells, animals, samples, runs or records. ± gives the spread as reported.
SMILES,test,system,conditions,scale,measurement,result
CCCCCCCCCCCCCCCC(=O)N[C@@H](CCCCN)C(=O)N[C@@H](CCCCN)C(=O)N[C@@H](CO)C(=O)N[C@@H](CCCNC(=N)N)C(=O)N[C@@H](C)C(=O)N[C@@H](CC(C)C)C(=O)N[C@@H](Cc1ccccc1)C(N)=O,,"cynomolgus monkey, male","3 mg/kg, day 1",,activated partial thromboplastin time,30.5 ± 1.1 s
CCN(CC)c1ccc2c(-c3ccc(S(=O)(=O)NCCNC(=O)CN4CCN(CC(=O)[O-])CCN(CC(=O)O)CCN(CC(=O)[O-])CC4)cc3S(=O)(=O)[O-])c3ccc(=[N+](CC)CC)cc-3oc2c1.[64Cu+2],,"athymic nude mice, U-87 MG glioma xenograft","intravenous, 0.5 h post-injection",,tumour uptake,6.54 ± 1.5 %ID/g
COCCOCCOCCOCCOCCOCCOCCOCCC(=O)NCCCc1cc2cc3nc(cc4[nH]c(cc5nc(c(OC)c1[nH]2)C(=O)C5(C)C)cc4CCc1ccc(C(=O)O)cc1)CC3(C)C,,DMF,room temperature,,Qy absorption maximum,679 nm
Cn1c(=O)oc2ccc(-c3ccc(CC(C#N)NC(=O)C4CNCCCO4)c(F)c3)cc21 (stereo not drawn),,human,"oral, 40 mg once daily, TEAE, multiple ascending dose",,urine RBC positive incidence,0%
CC(C)[C@H](NC(=O)CNC(=O)[C@H](CCC(N)=O)NC(=O)[C@H](C)N)C(=O)O,LC-MS/MS,"human, plasma","intravenous, 20 mg/kg three times daily, day 1, first dose, 10 min infusion, geometric mean",,AUC(0-last),0.506 µg·h/mL
CCCC[C@H](NC(=O)[C@H](CC(C)C)N(C)C(=O)CNC(=O)[C@@H](NC(=O)[C@H](Cc1ccccc1)NC(=O)[C@H](CCCCN)NC(=O)[C@@H](N)CC(=O)O)C(C)C)C(N)=O,,anaesthetised Sinclair minipigs,"SC, 30 µg/kg",baseline: baseline,mean arterial pressure change,1.97 ± 3.35%
Cc1ccc(C(=O)N[C@@H](CO)CC(C)C)cc1C,LC-MS,"Sprague-Dawley rat, both sexes, rat liver microsomes","10 µM of parent drug, 10 min, pH 7.4, with: NADPH",baseline: parent drug at time zero,metabolite peak area,2.5%
CCCCCCNC(=O)[O][Pt]([NH2])([NH2])([Cl])([Cl])[O]C(=O)CCC(=O)Nc1ccc2c(C)cc(=O)oc2c1,fluorescence,PBS,"10 µM, with: ascorbic acid 10 equivalents",,onset time of ligand release,≤ 4 h
COC(=O)c1ccc(-c2cn(Cc3cc(Cl)ccc3O[11CH3])nn2)cc1,PET Logan plot,"rhesus monkey, white matter","dose not given, t* 40 min",,distribution volume (VT),0.451 mL/cm³
CCCC(CCC)NC(=O)c1ccc(O)c(OS(=O)(=O)O)c1,LC-MS,"Sprague-Dawley rats, pooled sexes, plasma","oral, 200 mg/kg of parent drug, 1 h",baseline: total peak area,metabolite peak area,0.78%
CC(=O)N[C@H](CC(=O)O)C(=O)N[C@H](Cc1c[nH]c2ccccc12)C(=O)N[C@H](Cc1ccccc1)C(=O)N[C@H](CCCCN)C(=O)N[C@H](C)C(=O)N[C@H](Cc1ccccc1)C(=O)N[C@H](Cc1ccc(O)cc1)C(=O)N[C@H](CC(=O)O)C(=O)N[C@H](CCCCN)C(=O)N[C@@H](C(=O)N[C@H](C)C(=O)N[C@H](CCC(=O)O)C(=O)N[C@H](CCCCN)C(=O)N[C@H](Cc1ccccc1)C(=O)N[C@H](CCCCN)C(=O)N[C@H](CCC(=O)O)C(=O)N[C@H](C)C(=O)N[C@H](Cc1ccccc1)C(N)=O)C(C)C,,"statin-treated high-risk CHD women, plasma","oral, 500 mg daily, day 1, 0 to 2 h, mean, outlier excluded",,Cmax,0.0673 µg/mL
COC(=O)C(c1ccccc1Cl)N1CCC2SC(=O)C=C2C1 (stereo not drawn),LC-MS/MS,human plasma,"50 ng/mL, after freeze-thaw cycles",,measured concentration,51 ± 3.9 ng/mL
CC(C)C[C@@H](NC(=O)[C@H](NC(=O)[C@H]1CCCN1)[C@H](C)O)C(=O)N[C@H](Cc1c[nH]cn1)C(=O)N[C@@H](C(=O)N[C@H](Cc1c[nH]cn1)C(=O)N[C@H](CC(N)=O)C(=O)N[C@H](CCCNC(=N)N)C(=O)N[C@H](CCCNC(=N)N)C(=O)N[C@H](CCCNC(=N)N)C(=O)N[C@H](CCCNC(=N)N)C(=O)N[C@H](CCCNC(=N)N)C(N)=O)[C@H](C)O,,"Beagle dog, plasma","oral, 50 mg/kg single dose, from mean plasma levels",,beta half-life,0.121 days
COc1cc(OC)cc(C2=C3C(C)=C(I)C(C)=[N+]3[B-](F)(F)n3c(/C=C/c4c[nH]c5ccc([N+](=O)[O-])cc45)c(I)c(C)c32)c1,,DMSO,,,Stokes shift,716 cm⁻¹
CC/C=C\C/C=C\C/C=C\C/C=C\C/C=C\CCCCOC(CC)C(=O)O (stereo not drawn),"radioactivity, 14C-labelled","Wistar rat, male, urine and feces","oral, 100 mg/kg, 48 h",baseline: dose,cumulative excretion of radioactivity,> 95%
COc1ccc2cc(-c3ccc(-c4ccc(C)cn4)nc3)oc2c1,TCSPC,DMSO,,,radiative decay rate constant,0.46 ns⁻¹
Nc1nccc(-c2cn(C3CC3)c3ccccc23)n1,"radio-HPLC, co-eluting peaks pooled","human male, feces","oral, 110 mg, 0 to 240 h, sample holds 81.99% dose",baseline: sample radioactivity,share of radioactivity,1.15%
C[C@]12CC[C@@H]3c4ccc(OCC(=O)N[C@@H](CCCCNC(=O)CN5CCN(CC(=O)[O-])CCN(CC(=O)[O-])CCN(CC(=O)[O-])CC5)C(=O)O)cc4CC[C@H]3[C@@H]1CCC2=O.[177Lu+3],,"female nude mice, MCF7 xenograft",1 h post injection,,tumour uptake,3.79 ± 0.87 % IA/g
O=C(NCCCN(CCCCN(CCCNC(=O)c1cccc(=O)n1[O-])C(=O)c1cccc(=O)n1[O-])C(=O)c1cccc(=O)n1[O-])c1cccc(=O)n1[O-].[89Zr+4],radio-TLC,PBS,"1 h, pH 7.4, 37 °C, with: Gd^3+ 10-fold excess",,intact complex,98.2 ± 2.6%
NC(=O)[C@@H](CCCCNC(=O)CNC(=O)CCC(=O)NCCc1c[nH]cn1)NC(=O)[C@@H](CCC(=O)O)NC(=O)[C@@H](CCCCNC(=O)CNC(=O)CCC(=O)NCCc1c[nH]cn1)NC(=O)[C@@H](Cc1ccc(O)cc1)NC(=O)CN1CCN(CC(=O)O)CCN(CC(=O)O)CCN(CC(=O)O)CC1 [indium-111 labelled],SPECT,"human, CEACAM5-expressing tumours, psoas muscle","intravenous, dose not given, 24 h, with: TF2 pretargeting 75 mg",,muscle activity concentration,0.18 %ID/kg
O=C(CCCCC[N+]#[C][99Tc-5]([C]#[N+]CCCCCC(=O)N[C@H]1C(O)O[C@H](CO)[C@@H](O)[C@@H]1O)([C]#[N+]CCCCCC(=O)N[C@H]1C(O)O[C@H](CO)[C@@H](O)[C@@H]1O)([C]#[N+]CCCCCC(=O)N[C@H]1C(O)O[C@H](CO)[C@@H](O)[C@@H]1O)([C]#[N+]CCCCCC(=O)N[C@H]1C(O)O[C@H](CO)[C@@H](O)[C@@H]1O)[C]#[N+]CCCCCC(=O)N[C@H]1C(O)O[C@H](CO)[C@@H](O)[C@@H]1O)N[C@H]1C(O)O[C@H](CO)[C@@H](O)[C@@H]1O (stereo partly drawn),SPECT/CT,BALB/c nude mouse TE-1 xenograft,2 h,baseline: tumour over non-tumour,tumour/non-tumour ratio,6.01 ± 1.37
COc1cc(NC(C)=O)c2c(c1O)-c1c(OC)c(OC)cc3c1C(C2)N(C)CC3 (stereo not drawn),,rat lung homogenate,"0.5 µg/mL, time not given, three freeze-thaw cycles",,remaining compound,104 ± 2.6%
CC(C)C[C@@H]1NC(=O)[C@@H]2CCCN2C(=O)[C@H](CO)NC(=O)[C@@H](NC(=O)[C@H](Cc2c[nH]cn2)NC(=O)[C@H](CO)NC(=O)[C@H](Cc2ccc(O)cc2)NC(=O)[C@H](CC(=O)O)NC(=O)CNC(=O)CN2CCN(CC(=O)O)CCN(CC(=O)O)CCN(CC(=O)O)CC2)CSSC[C@@H](C(=O)N[C@H](C(=O)N[C@@H](Cc2ccc(O)cc2)C(=O)N2CCC[C@H]2C(=O)N[C@@H](CC(=O)O)C(=O)N2CCC[C@H]2C(=O)N[C@@H](CCC(=O)O)C(=O)NCC(=O)NCC(=O)NCC(N)=O)[C@@H](C)O)NC(=O)[C@H](CCCCN)NC(=O)[C@H](Cc2c[nH]c3ccccc23)NC(=O)[C@H](Cc2c[nH]c3ccccc23)NC(=O)[C@@H]2CCCN2C(=O)[C@H](Cc2ccc(O)cc2)NC(=O)[C@H](Cc2ccc(O)cc2)NC(=O)[C@H](CCCNC(=N)N)NC1=O [gallium-68 labelled],PET/CT,"male NOD-SCID mice, heart","intravenous, 3.7 MBq, 15 min",,SUVmax,1.15 ± 0.08 SUV
O=C(O)CN1CCNCCNCCN(C(C(=O)O)c2ccc(C(=O)O)cc2)CC1 (stereo not drawn),pH-potentiometric titration,,"25 °C, 0.1 M KCl",,sum log K3 + log K4,7.9
C[C@](C#N)(COc1cc(C#N)ccc1C(F)(F)F)NC(=O)c1ccc(S(=O)(=O)C(F)(F)F)cc1,,"parasitized calves, plasma","oral, 2.5 mg/kg of MNP",baseline: compound over MNP,AUC ratio,6 and 5.99
CCC(=O)N[C@@H](C)C(=O)OCC(=O)N[C@@H](C)C(=O)O,,water,"pH 5, 37 °C",,depolymerization half-life,24.3 days
NC[C@@H](C(=O)Nc1ccc(-c2cn[nH]c2)cc1)c1ccccc1,OECD 405 eye irritation,"New Zealand White rabbit, eye","topical, 0.1%, 80 h (day 4), scale 0 to 2",direction not given,iris score,0
CCCC[C@@H]1NC(=O)[C@@H](NC(=O)[C@H](CCC(=O)O)NC(=O)CNC(=O)CN2CCN(CC(=O)O)CCN(CC(=O)O)CCN(CC(=O)O)CC2)CCCCNC(=O)C[C@@H](C(N)=O)NC(=O)[C@H](C(C)C)NC(=O)[C@@H]2CCCN2C(=O)[C@H](CCCNC(=N)N)NC(=O)CNC(=O)[C@H](Cc2c[nH]c3ccccc23)NC(=O)[C@H](CCCNC(=N)N)NC(=O)[C@@H](Cc2ccccc2)NC(=O)[C@H](Cc2c[nH]cn2)NC(=O)[C@H](CCC(=O)O)NC1=O [gallium-67 labelled],,"C57 mice, B16/F1 flank melanoma","intravenous, 2 h, with: blocking peptide 10 µg",baseline: tumour over muscle,tissue ratio,4.11
[11CH3]c1ccc2nc(C3CCC3)n(-c3ccc4[nH]ncc4c3)c2n1,extrapolated from mouse,"human female, Urinary bladder wall",,,absorbed dose,2.8 µSv/MBq
O=C(/C=C/c1ccccc1)Oc1ccc2c(c1)O/C(=C\C=C\c1ccccc1)C2=O,,"C57BL/6J mouse, female","i.p., 60 mg/kg single, 8 h",,peak area in plasma,807 mAU

# Excerpt of the above:
SMILES,test,system,conditions,scale,measurement,result
COCCOCCOCCOCCOCCOCCOCCOCCC(=O)NCCCc1cc2cc3nc(cc4[nH]c(cc5nc(c(OC)c1[nH]2)C(=O)C5(C)C)cc4CCc1ccc(C(=O)O)cc1)CC3(C)C,,DMF,room temperature,,Qy absorption maximum,679 nm
Cn1c(=O)oc2ccc(-c3ccc(CC(C#N)NC(=O)C4CNCCCO4)c(F)c3)cc21 (stereo not drawn),,human,"oral, 40 mg once daily, TEAE, multiple ascending dose",,urine RBC positive incidence,0%
CC(C)[C@H](NC(=O)CNC(=O)[C@H](CCC(N)=O)NC(=O)[C@H](C)N)C(=O)O,LC-MS/MS,"human, plasma","intravenous, 20 mg/kg three times daily, day 1, first dose, 10 min infusion, geometric mean",,AUC(0-last),0.506 µg·h/mL
CCCC[C@H](NC(=O)[C@H](CC(C)C)N(C)C(=O)CNC(=O)[C@@H](NC(=O)[C@H](Cc1ccccc1)NC(=O)[C@H](CCCCN)NC(=O)[C@@H](N)CC(=O)O)C(C)C)C(N)=O,,anaesthetised Sinclair minipigs,"SC, 30 µg/kg",baseline: baseline,mean arterial pressure change,1.97 ± 3.35%
Cc1ccc(C(=O)N[C@@H](CO)CC(C)C)cc1C,LC-MS,"Sprague-Dawley rat, both sexes, rat liver microsomes","10 µM of parent drug, 10 min, pH 7.4, with: NADPH",baseline: parent drug at time zero,metabolite peak area,2.5%
